Results of several laboratories.
Protocols differ between the studies behind these lines. Several values in a cell are separate wells, animals, samples, runs or records.
Target: Myosin light chain kinase 2, skeletal/cardiac muscle (MYLK2, Homo sapiens, UniProt Q9H1R3)

SMILES | test | setting | how to read | measurement | result
COc1cc(Nc2nc(C)cc(-c3cnn4nc(OC)ccc34)n2)cc(C(F)(F)F)c1 | inhibitor | 1 µM | reference: control | remaining activity | 100%
Nc1ncc(-c2cc(-c3cnn(CC(F)(F)F)c3)ncc2F)nc1C(=O)NC1CNCC(F)C1 (stereo not shown) | enzyme activity | 1 µM | reference: DMSO control | remaining activity | 97.3%
CNC(=O)C[C@H](Cc1ccc(C#N)cc1)NC(=O)c1cc(-c2ccc(CN[C@H](C)c3ccc(C)cc3)o2)ccc1Cl | enzyme activity, inhibitor | 1 µM |  | activity vs control | 108%
COC(=O)[C@@]1(C)C=C(C(=O)Nc2cccc(C(=O)Nc3ccc(Nc4nccc(-c5cccnc5)n4)c(C)c3)c2)C(=O)CC1 | enzyme activity, inhibitor, radiometric | 1 µM |  | remaining activity | 87%
O=C(Cc1ccc(OCc2ccccc2)cc1)NC1(C(=O)O)CCN(C(=O)c2ccc(-c3cccc(Cl)c3)cc2)CC1 | enzyme activity, inhibitor | 10 µM |  | activity vs control | 103%
CC(C)=CC1OC(C)(C)C2C=C3C(=O)C(Cl)=CC(O)C3C3C(O)C4OC4C(=O)C132 (stereo not shown) | cell-free assay, competition with immobilised ligand | 10 µM |  | remaining binding | 94%
Cc1ccc(-c2c(/C=C(\C#N)C(=O)NC(C)C)n(CCCO)c3ncnc(N)c23)cc1 | cell-free assay, competition with immobilised ligand | 1 µM |  | remaining binding | 96%
CN1CC[C@@H](COc2cnc(C#N)cc2-c2ccn3nc(NC(=O)C4CC4)cc3c2)C1 | enzyme activity, inhibitor | 1 µM |  | inhibition | 6%
CNC(=O)C1CCN(c2cc(C)c(F)cc2NC(=O)c2ccc(-c3cc(O)ccc3C)c(C)c2)CC1 | binding, competition with immobilised ligand | 1 µM |  | remaining binding | 99%
NC(=O)C[C@H]1CCc2sc3ncnc(O[C@H]4CC[C@H](N5CCOCC5)CC4)c3c21 | enzyme activity, inhibitor | 10 µM |  | inhibition | 2%
CCN1CCN(Cc2ccc(C(=O)Nc3ccc(C)c(NCc4cnc5[nH]ccc5c4OC)c3)cc2C(F)(F)F)CC1 | binding, competition with immobilised ligand | 1 µM |  | remaining binding | 13%
C=CC(=O)Nc1cccc(-c2cnc3[nH]cc(C(=O)NC(C)(C)C)c3n2)c1 | kinase activity | 0.1 µM |  | inhibition | 10% and -2%
COc1c(Cl)cccc1Nc1c(-c2ccncc2C#C[C@@]2(C)CCCN2C(=O)/C=C/CN(C)C)[nH]c2c1C(=O)NCC2 | binding, competition with immobilised ligand | 3 µM |  | remaining binding | 94%
